# Experimental data from different studies.
# Protocols differ between the studies behind these lines. Several values in a cell are separate wells, animals, samples, runs or records. ± gives the spread as reported.
# SLCO1B3 M233I/S112A: Solute carrier organic anion transporter family member 1B3 (SLCO1B3, Homo sapiens, UniProt Q9NPD5, M233I/S112A)
# UniProt Q9NPD5, sequence (whole entry, unmodified, looked up): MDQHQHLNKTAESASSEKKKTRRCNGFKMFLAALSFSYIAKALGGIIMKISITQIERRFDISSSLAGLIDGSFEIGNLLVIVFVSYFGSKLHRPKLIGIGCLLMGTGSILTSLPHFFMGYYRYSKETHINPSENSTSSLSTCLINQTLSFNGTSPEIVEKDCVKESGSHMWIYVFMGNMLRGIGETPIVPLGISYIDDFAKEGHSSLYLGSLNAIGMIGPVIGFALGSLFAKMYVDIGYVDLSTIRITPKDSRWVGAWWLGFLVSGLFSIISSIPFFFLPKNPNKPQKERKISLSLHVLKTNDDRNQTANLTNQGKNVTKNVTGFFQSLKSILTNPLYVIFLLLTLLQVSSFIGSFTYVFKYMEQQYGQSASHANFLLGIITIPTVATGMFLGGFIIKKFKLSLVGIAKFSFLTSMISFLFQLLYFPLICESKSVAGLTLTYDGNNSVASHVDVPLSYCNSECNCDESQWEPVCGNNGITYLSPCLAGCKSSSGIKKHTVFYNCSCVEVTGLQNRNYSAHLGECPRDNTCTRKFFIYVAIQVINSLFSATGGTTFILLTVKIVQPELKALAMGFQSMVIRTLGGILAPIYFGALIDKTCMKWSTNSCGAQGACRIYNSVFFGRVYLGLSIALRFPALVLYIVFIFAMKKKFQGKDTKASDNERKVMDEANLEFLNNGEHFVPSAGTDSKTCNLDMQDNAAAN
# UniProt P11712, sequence (whole entry, looked up): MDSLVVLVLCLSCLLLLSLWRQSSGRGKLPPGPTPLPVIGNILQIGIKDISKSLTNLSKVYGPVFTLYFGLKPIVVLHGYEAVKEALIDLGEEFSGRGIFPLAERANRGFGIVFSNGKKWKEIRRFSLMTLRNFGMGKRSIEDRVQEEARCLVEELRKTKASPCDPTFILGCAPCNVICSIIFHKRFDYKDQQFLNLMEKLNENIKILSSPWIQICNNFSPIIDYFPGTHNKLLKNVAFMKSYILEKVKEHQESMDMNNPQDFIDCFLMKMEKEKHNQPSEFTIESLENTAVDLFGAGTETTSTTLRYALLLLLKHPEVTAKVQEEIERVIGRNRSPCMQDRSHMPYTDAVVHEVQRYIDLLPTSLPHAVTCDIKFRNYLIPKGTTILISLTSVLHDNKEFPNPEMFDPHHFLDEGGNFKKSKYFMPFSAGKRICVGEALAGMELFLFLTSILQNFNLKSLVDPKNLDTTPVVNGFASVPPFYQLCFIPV
# UniProt P08183, sequence (whole entry, looked up): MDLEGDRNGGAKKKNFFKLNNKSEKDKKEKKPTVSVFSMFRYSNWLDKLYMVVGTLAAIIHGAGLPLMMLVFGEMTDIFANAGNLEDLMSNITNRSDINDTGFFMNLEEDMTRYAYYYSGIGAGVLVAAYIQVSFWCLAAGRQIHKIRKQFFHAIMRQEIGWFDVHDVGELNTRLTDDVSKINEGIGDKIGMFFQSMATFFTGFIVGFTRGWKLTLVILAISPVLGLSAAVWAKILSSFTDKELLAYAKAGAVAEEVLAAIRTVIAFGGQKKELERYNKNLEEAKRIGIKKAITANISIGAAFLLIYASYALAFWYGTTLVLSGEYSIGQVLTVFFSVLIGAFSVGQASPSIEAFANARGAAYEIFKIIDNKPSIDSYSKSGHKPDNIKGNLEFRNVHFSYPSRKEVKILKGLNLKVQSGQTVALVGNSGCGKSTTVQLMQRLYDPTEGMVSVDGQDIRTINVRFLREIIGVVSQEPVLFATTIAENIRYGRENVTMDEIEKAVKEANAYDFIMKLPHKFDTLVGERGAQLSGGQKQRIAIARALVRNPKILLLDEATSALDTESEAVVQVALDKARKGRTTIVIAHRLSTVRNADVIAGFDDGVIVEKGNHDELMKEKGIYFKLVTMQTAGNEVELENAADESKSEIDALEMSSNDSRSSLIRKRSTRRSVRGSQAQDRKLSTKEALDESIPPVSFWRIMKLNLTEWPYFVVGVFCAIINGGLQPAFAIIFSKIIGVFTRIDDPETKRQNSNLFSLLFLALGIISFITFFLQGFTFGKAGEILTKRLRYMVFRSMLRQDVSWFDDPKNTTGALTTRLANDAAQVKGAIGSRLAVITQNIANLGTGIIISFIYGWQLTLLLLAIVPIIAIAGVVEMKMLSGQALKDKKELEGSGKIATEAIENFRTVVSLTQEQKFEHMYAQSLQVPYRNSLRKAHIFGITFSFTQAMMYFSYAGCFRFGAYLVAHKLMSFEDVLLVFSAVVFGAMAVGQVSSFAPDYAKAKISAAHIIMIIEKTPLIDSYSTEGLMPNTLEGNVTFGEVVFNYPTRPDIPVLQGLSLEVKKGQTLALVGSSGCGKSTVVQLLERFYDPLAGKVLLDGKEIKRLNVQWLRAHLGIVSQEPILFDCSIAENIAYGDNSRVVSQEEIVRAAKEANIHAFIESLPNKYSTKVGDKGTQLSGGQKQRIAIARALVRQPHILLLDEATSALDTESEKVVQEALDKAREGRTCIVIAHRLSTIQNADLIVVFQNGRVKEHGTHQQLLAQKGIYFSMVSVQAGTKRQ
Compound,target or system,assay,test system,conditions,scale,quantity,result
COc1cccc(-c2cccc(Nc3nccc(NC4CCCCC4)n3)c2)c1,P-glycoprotein (human MDR1),,MDR1-MDCKII,"10 µM, 1 h, pH 7.4",,Papp (B-A),0.094 ± 0.042 ×10⁻⁶ cm/s
CCCC(=O)OCSc1ccccc1C(=O)NCCn1cc(C(=O)NCc2cccc(C)n2)c(=O)c2cc3c(cc21)OC(F)(F)O3,"human PBMCs, PHA-P-stimulated",XTT,,"7 days, BCF01 line",,TC50,> 100 µM
CNC(=O)c1cc(Oc2ccc(NC(=O)Nc3ccc(Cl)c(C(F)(F)F)c3)cc2)ccn1,SLCO1B3 M233I/S112A,"uptake, substrate",HEK293-A stably expressing SLCO1B3,2 min,,Vmax,307 ± 41.4 pmol/mg protein/min
CCCC(=O)OCSc1ccccc1C(=O)NCCNC(=O)Cn1ccc(=O)c2cc3c(cc21)OCO3,CEM-SS,"cell viability, XTT",RPMI with 10% FBS,6 days,,TC50,> 100 µM
CNCCOC12CC3(C)CC(C)(CC(Cn4ncc(-c5ccc(N6CCc7cccc(C(=O)Nc8nc9ccccc9s8)c7C6)nc5C(=O)O)c4C)(C3)C1)C2,,,"beagle dog, male, anaesthetised","intravenous bolus, 0.03 mg/kg, 120 min",relative to: baseline,heart rate change,-2%
CC[C@H](CO)N(CCN(N=O)[C@H](CC)CO)N=O,Salmonella typhimurium,"mutagenicity, Ames plate incorporation",TA1535,"50 µg/plate, without S9, methanol",,revertant colonies per plate,15 ± 7
CC[C@H]1[C@@H](O)[C@@H]2[C@H](CC[C@]3(C)[C@@H]([C@H](C)CCNC(=O)NS(=O)(=O)c4ccc(C(C)(C)C)cc4)CC[C@@H]23)[C@@]2(C)CC[C@@H](O)C[C@@H]12,"ABCB1 (Homo sapiens, UniProt P08183)",,"human, plasma","arithmetic mean, added: quinidine",,Tlast,90.9 h
CC(C)Nc1ccnc(Nc2cccc(-c3ccccn3)c2)n1,P-glycoprotein (human MDR1),,MDR1-MDCKII,"10 µM, 1 h, pH 7.4",relative to: B-A over A-B,efflux ratio,2.66
Cc1cn([C@H]2C[C@H](N=[N+]=[N-])[C@@H](CO)O2)c(=O)[nH]c1=O,CEM-SS,"cell viability, XTT",,added: glutathione 2 mM,,TC50,> 0.5 µM
CC(C)c1nc(N(C)S(C)(=O)=O)nc(-c2ccc(F)cc2)c1/C=C/[C@@H](O)C[C@@H](O)CC(=O)O,"SLCO1B3 (Homo sapiens, UniProt Q9NPD5)","substrate, uptake",HEK293-A stably expressing SLCO1B3,2 min,,Km,13.6 ± 9.3 µM
CCCC(=O)OCSc1ccccc1C(=O)NCC(=O)NCCn1ccc(=O)c2cc3c(cc21)OCO3,CEM-SS,"cell viability, XTT",RPMI with 10% FBS,6 days,,TC50,> 100 µM
CC[C@H](C)C(=O)N1CCC(NC(=O)Nc2ccc(OC(F)(F)F)c(F)c2)CC1,Caco-2,Caco-2 permeability,,"10 µM, 60 min, pH 7.4 apical, 7.4 basolateral, replicate 2",basolateral to apical,percent recovery,81%
CCCC(=O)OCSc1ccccc1C(=O)NCCn1ccc(=O)c2cc(C(F)(F)F)ccc21,CEM-SS,"cell viability, XTT",RPMI with 10% FBS,6 days,,TC50,44.8 ± 10.4 µM
COc1cc(/C=C/C=C2\SC(=S)NC2=O)cc(OC)c1O,HeLa,CellTiter-Glo,,"40 µM, 24 h, unit not given",relative to: untreated,viability,0.82 and 0.843
CCCC(=O)OCSc1ccccc1C(=O)NCCn1cc(C(=O)NCc2ncccc2C)c(=O)c2cc3c(cc21)OCO3,CEM-SS,"cell viability, XTT",RPMI with 10% FBS,6 days,,TC50,> 100 µM
CCc1cc(/C(C)=N/OCc2ccc(C3CCCCC3)c(C(F)(F)F)c2)ccc1CN1CC(C(=O)O)C1,"Cytochrome P450 2C9 (CYP2C9, Homo sapiens, UniProt P11712)","time-dependent inhibition, inhibitor, refers to: 4'-hydroxydiclofenac",pooled human liver microsomes,added: diclofenac 10 µM,,"Ki,u",0.26 µM
CCCC(=O)OCSc1ccccc1C(=O)NCCOc1ccnc2ccc(Cl)cc12,CEM-SS,"cell viability, XTT",RPMI with 10% FBS,6 days,,TC50,46.3 µM
CC(C)n1c(/C=C/C(O)CC(O)CC(=O)O)c(-c2ccc(F)cc2)c2ccccc21 (stereo not drawn),SLCO1B3 M233I/S112A,"uptake, substrate",HEK293-A stably expressing SLCO1B3,2 min,,Vmax,274 ± 5.73 pmol/mg protein/min
Cc1cc(Nc2ccc(S(F)(F)(F)(F)F)cc2)n2nc(C(C)(F)F)nc2n1,Plasmodium vivax,,human Plasmodium vivax malaria patients,"oral, 400 mg",,patients with blood or lymphatic AEs,20%
Cc1cc(N)c2c(OCC(C)(C)C(=O)NC(C)C)cccc2n1,Salmonella typhimurium,"reverse mutation, plate incorporation",TA98,"100 µg/plate, without S9",,mean revertant colonies,14 colonies/plate
CCCC(=O)OCSc1ccccc1C(=O)NCCOc1ccnc2ccc(OC)cc12,CEM-SS,"cell viability, XTT",RPMI with 10% FBS,6 days,,TC50,73.8 ± 8.3 µM
COc1ccc(-c2ccc(CNC(=O)c3cc(C(=O)NC(C)C)ccc3Cl)cc2)cn1,Plasmodium falciparum,,"infected erythrocytes, 3D7A","10 x IC50, 72 h, serum-containing medium",,viability,~50%
Cc1c(-c2ccc(N3CCc4cccc(C(=O)Nc5nc6ccccc6s5)c4C3)nc2C(=O)O)cnn1CC12CC3(C)CC(C)(C1)CC(OCCNCC[C@H](O)CO)(C3)C2,,,"beagle dog, male, anaesthetised","intravenous infusion, 0.3 mg/kg/min, 90 (unit not given)",relative to: vehicle,heart rate change,-15%
CN(C(=O)C(C)(C)c1cc(C(F)(F)F)cc(C(F)(F)F)c1)c1cnc(N2C[C@H]3COCCN3C[C@H]2CO)cc1-c1ccc(F)cc1[14CH3],cryopreserved human hepatocytes,,,"0.5 µM, mean of three donors, added: 5 µM cobicistat and 1 µM CYP3cide",,fraction metabolized via UGT,11.9%
